{"data": "Measurements pooled from the literature", "cell line": "A2780", "note": "Compare with care: the assays were run in different laboratories. Numbers after ± are the reported error."}
{"SMILES": "CC(C)=CCC1=C([O-])C(=O)c2ccccc2C1=O.CC(C)=CCC1=C([O-])C(=O)c2ccccc2C1=O.O.O.[Zn+2].c1cnc2c(c1)ccc1cccnc12", "test": "annexin V/PI flow cytometry", "setting": "half-cytotoxic concentration, 24 h", "endpoint": "apoptotic cells", "value": "increased"}
{"SMILES": "CC12CCC3c4ccc(OCCCOc5no[n+]([O-])c5S(=O)(=O)c5ccccc5)c(Br)c4CCC3C1CCC2O (stereo not drawn)", "test": "MTT", "setting": "100 nM, 24 h, together with: haemoglobin 0 to 10 µM", "endpoint": "antiproliferative activity", "value": "decreased"}
{"SMILES": "CC(CCC(=O)OCc1cccc(CN(C(=O)OCc2ccc(B3OC(C)(C)C(C)(C)O3)cc2)[c-]2cccc2)c1)C1CCC2C3C(O)CC4CC(O)CCC4(C)C3CC(O)C12C.[Fe+2].c1cc[cH-]c1 (stereo not drawn)", "test": "qPCR, refers to: CHOP", "setting": "concentration not given, 24 h", "endpoint": "mRNA level", "value": "increased"}
{"SMILES": "COc1ccc(CC2COC(=O)C2Cc2ccc3c(c2)OCO3)cc1OC (mixture of isomers)", "test": "western blot, refers to: PUMA", "setting": "IC50, 48 h", "scale": "baseline: 0 h", "endpoint": "protein level", "value": "increased"}
{"SMILES": "Oc1ccccc1-c1nn(-c2ccccn2)[n+](-c2ccccc2)n1.[Br-]", "test": "flow cytometry", "setting": "40 µM, 48 h", "endpoint": "late apoptotic cells", "value": "30%"}
{"SMILES": "CN(C)C(=O)c1ccc(COC(=O)N[c-]2cccc2)cc1.[Fe+2].c1cc[cH-]c1", "test": "CM-DCFH-DA", "setting": "25 µM, 2 h", "scale": "baseline: DMSO", "endpoint": "total ROS level", "value": "2.2 ± 0.6 fold"}
{"SMILES": "[Br-].c1ccc(-c2nn(-c3ccccn3)[n+](-c3ccccc3)n2)cc1", "test": "flow cytometry", "setting": "40 µM, 48 h", "endpoint": "late apoptotic cells", "value": "15%"}
{"SMILES": "O=C(OCc1ccc(F)cc1)N(Cc1cccc(CN2CCCCC2)c1)[c-]1cccc1.[Fe+2].c1cc[cH-]c1", "test": "MitoSOX", "setting": "25 µM, 2 h", "endpoint": "mitochondrial ROS", "value": "increased"}
{"SMILES": "CCCCCCCCCCCCCCCCNC(=O)[O][Pt]([Cl])([Cl])[O]C(=O)CCC(=O)O.N.N", "test": "flow cytometry", "setting": "0.2 µM, 24 h", "endpoint": "cells in S phase", "value": "51.1%"}
{"note": "A few entries again:"}
{"SMILES": "CC(C)=CCC1=C([O-])C(=O)c2ccccc2C1=O.CC(C)=CCC1=C([O-])C(=O)c2ccccc2C1=O.O.O.[Zn+2].c1cnc2c(c1)ccc1cccnc12", "test": "annexin V/PI flow cytometry", "setting": "half-cytotoxic concentration, 24 h", "endpoint": "apoptotic cells", "value": "increased"}
